Measurements gathered from unrelated publications.
Each line is one published result; not all experiments were run side by side. Numbers after ± are the reported error.
Chain of UniProt P31749 (whole entry, looked up): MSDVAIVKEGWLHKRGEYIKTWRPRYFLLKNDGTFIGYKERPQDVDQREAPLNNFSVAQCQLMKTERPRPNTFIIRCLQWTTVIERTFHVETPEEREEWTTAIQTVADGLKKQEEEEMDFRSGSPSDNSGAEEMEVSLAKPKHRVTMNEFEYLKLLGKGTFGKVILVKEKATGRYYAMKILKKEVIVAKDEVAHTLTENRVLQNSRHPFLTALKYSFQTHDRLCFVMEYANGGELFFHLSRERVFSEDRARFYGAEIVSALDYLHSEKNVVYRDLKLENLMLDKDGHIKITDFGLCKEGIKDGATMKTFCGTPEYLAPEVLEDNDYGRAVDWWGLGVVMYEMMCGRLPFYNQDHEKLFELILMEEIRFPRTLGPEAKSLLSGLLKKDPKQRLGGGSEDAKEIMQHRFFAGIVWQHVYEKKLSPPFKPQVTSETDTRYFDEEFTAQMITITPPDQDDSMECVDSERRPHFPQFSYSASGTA

For `CCCC[C@H](NC(=O)CCCCCCCNC(=O)CN1CCN(CC(=O)O)CCN(CC(=O)O)CC1)C(=O)N[C@H]1CC(=O)NCCCC[C@@H](C(N)=O)NC(=O)[C@H](Cc2c[nH]c3ccccc23)NC(=O)[C@H](CCCNC(=N)N)NC(=O)[C@@H](Cc2ccccc2)NC(=O)[C@H](Cc2c[nH]cn2)NC1=O` [technetium-99m labelled], the tissue uptake was 19.4 ± 2.95 %ID/g (C57 mouse, tumor; intravenous, 0.037 MBq, 2 h).
With `CNS(=O)(=O)Nc1nccc(Cc2c(C)c3ccc(Oc4ncccc4F)cc3oc2=O)c1F` the IC50 was 0.000701 µM (OCI-AML2; cell viability; 7 days).
`CCN(C(=O)c1cc(F)ccc1Oc1nncnc1N1CCC2(C1)CN([C@H](CCCN(C)CCOC)C(C)C)C2)C(C)C` has a GI50 of greater than 10 µM (MT-3; cell growth or viability; 72 h).
`c1ccc(-c2n[nH]cc2-c2ccnc3ccccc23)nc1`: “log2 fold change” 0.24 (RIM15 (Candida albicans); kinase binding, MIB/MS competition; Candida albicans lysate; 1 µM; relative to: DMSO).
For `C=CC(=O)Nc1cccc(Cn2ncc3cnc(Nc4cnn(CCOC)c4)nc32)c1`, “percent of control” read 27% (ERK8 human; binding, KINOMEscan; 100 nM; lower = stronger binding).
`CN1CCCNC(=O)c2cccc(c2)C(=O)NCCCN(C)CCCNc2cccc3c2C(=O)c2cccc(c2C3=O)NCCC1`: “log2 fold change” -1.87 (SAS; RNA-Seq, measured: LUC7L3 mRNA; 1 µM, 6 h; relative to: untreated cells).
With `C=C1CC[C@H](OCCCNC(=O)CCOCCOCCOCCOCCOCCOCCOCCOCCOCCOCCOCCOCCOCCOCCOCCOCCOCCOCCOCCOCCOCCOCCOCCOCCOCCOCCOCCOCCOCCOCCOCCOCCOCCOCCOCCOCCNC(=O)CCN2C(=O)CC(SC[C@H](NC(=O)[C@H](Cc3ccccc3)NC(=O)[C@H](CC(N)=O)NC(=O)[C@H](Cc3c[nH]cn3)NC(=O)[C@@H](NC(=O)[C@H](CC(=O)O)NC(=O)[C@H](CCC(N)=O)NC(=O)[C@H](CC(C)C)NC(=O)[C@H](CCCCN)NC(=O)[C@H](CCCCN)NC(=O)[C@H](CCCNC(=N)N)NC(=O)[C@H](CC(C)C)NC(=O)[C@H](Cc3c[nH]c4ccccc34)NC(=O)[C@H](CCC(=O)O)NC(=O)[C@@H](NC(=O)[C@H](CCCNC(=N)N)NC(=O)[C@H](CCC(=O)O)NC(=O)[C@H](CCSC)NC(=O)[C@H](CO)NC(=O)[C@H](CC(N)=O)NC(=O)[C@H](CC(C)C)NC(=O)[C@H](Cc3c[nH]cn3)NC(=O)[C@H](CCCCN)NC(=O)CNC(=O)[C@H](CC(C)C)NC(=O)[C@H](CC(N)=O)NC(=O)[C@H](Cc3c[nH]cn3)NC(=O)[C@H](CCSC)NC(=O)[C@H](CC(C)C)NC(=O)[C@H](CCC(N)=O)NC(=O)[C@@H](NC(=O)[C@H](CCC(=O)O)NC(=O)[C@H](CO)NC(=O)[C@@H](NC(=O)[C@@H](N)CO)C(C)C)[C@@H](C)CC)C(C)C)C(C)C)C(=O)O)C2=O)C/C1=C/C=C1\CCC[C@]2(C)[C@@H]([C@H](C)CCCC(C)(C)O)CC[C@@H]12` (stereo partly shown) the Cmax was 43.7 ng/mL (male Sprague-Dawley rat, plasma; subcutaneous, 100 µg/kg, single dose).
Under “log2 fold change”, `COC1CN([C@H]2CC[C@H]([C@@]3(C)Oc4c(Cl)cc(C(=O)NCc5c(SC)cc(C)[nH]c5=O)c(C)c4O3)CC2)C1` is recorded as 2.12 (RNA-seq, measured: N4BP3; human, whole blood; dose not given, 24 h; relative to: pretreatment baseline).
The IC50 of `Cc1nn(-c2cccc(N)c2)c(=O)c2cnc(Nc3ccc(N4CCNCC4)cc3)nc12` is reported as 3.6 µM (AKT1 (Homo sapiens, UniProt P31749); enzyme activity, inhibitor).
For `Cc1ncsc1-c1ccc(C(C)NC(=O)C2CC(O)CN2C(=O)C(NC(=O)CCCCCCCCCCN2CCCC(Nc3ncc(Cl)c(Nc4ccccc4S(=O)(=O)C(C)C)n3)C2)C(C)(C)C)cc1` (stereo not shown), “log2 fold change” read -2.46 (22Rv1; RNA-seq, measured: ZNF747 mRNA; concentration not given; relative to: DMSO).
`Nc1ncc(-c2cc(-c3cnn(CC(F)(F)F)c3)ncc2F)nc1C(=O)NC1CNCC(F)C1` (stereo not shown) gave a remaining binding of 100% (PRKCI; KINOMEscan; 1 µM; relative to: DMSO control).
`C=C(NC(=O)c1csc(-c2nc3c(cc2O)-c2nc(cs2)C(=O)NC(C(C)O)C(=O)NC(=C(C)OC)c2nc(cs2)C(=O)NC2c4nc(cs4)C(=O)NC(COC(=O)c4c5c6c(cccc6n4O)COC(=O)C(OC4CC(C)(O)C(N(C)C)C(C)O4)C2OC5)c2nc-3cs2)n1)C(N)=O` (stereo not shown) gave a Cmax of 2310 ng/mL (male Sprague-Dawley rat, plasma; intravenous, 2 mg/kg, single dose, infusion).
For `Cn1ncc2cc(-c3cncc(Cl)c3N3CCC4(CCNC4=O)CC3)ccc21`, “log2 fold change” read 2.45 (LS174T; gene expression, microarray, measured: HOXC4 mRNA; concentration not given, 24 h; relative to: untreated cells).

Excerpt of the above:
The IC50 of `Cc1nn(-c2cccc(N)c2)c(=O)c2cnc(Nc3ccc(N4CCNCC4)cc3)nc12` is reported as 3.6 µM (AKT1 (Homo sapiens, UniProt P31749); enzyme activity, inhibitor).
`C=C(NC(=O)c1csc(-c2nc3c(cc2O)-c2nc(cs2)C(=O)NC(C(C)O)C(=O)NC(=C(C)OC)c2nc(cs2)C(=O)NC2c4nc(cs4)C(=O)NC(COC(=O)c4c5c6c(cccc6n4O)COC(=O)C(OC4CC(C)(O)C(N(C)C)C(C)O4)C2OC5)c2nc-3cs2)n1)C(N)=O` (stereo not shown) gave a Cmax of 2310 ng/mL (male Sprague-Dawley rat, plasma; intravenous, 2 mg/kg, single dose, infusion).
